Literature values that unrelated publications cite.
Compare with care: the assays were run in different laboratories. Numbers after ± are the reported error.
Cell line: MCF7

| Compound | effect on | technique | time | notes | IC50 [nM] |
| --- | --- | --- | --- | --- | --- |
| COc1ccc2nc(Cl)c(C3CC(c4ccc(C)cc4)=NN3c3nc(-c4ccc(Cl)cc4)cs3)cc2c1 (centres unmarked) | cell growth |  |  |  | 227 |
| COc1ccc(-n2cc(Cn3c(/C=C4\SC(=O)NC4=O)nc4ccccc43)nn2)cc1 | cytotoxicity |  |  |  | 2900 |
| N#Cc1c(NC(=O)CN2CCSCC2)c(C(=O)c2ccccc2)n2c1CCC2 |  |  |  |  | 8600 |
| CCn1c(SCC(=O)Nc2cccc(C(=O)/C=C/c3ccc(OC)cc3)c2)nc2ccccc2c1=O | cytotoxicity |  |  |  | 3600 ± 600 |
| Oc1cccc(-c2cccc(O)n2)n1.[Cl-].[Cl-].[Ru+2].c1cnc2c(c1)ccc1cccnc12.c1cnc2c(c1)ccc1cccnc12 | cell viability |  |  | dark | 490000 |
| CC(=O)O[C@H]1CC[C@@]2(C)C(CC[C@]3(C)[C@@H]2CC=C2[C@@H]4[C@@H](C)[C@H](C)CC[C@]4(C(=O)N4CCN(C(=O)c5cccc(C(=C6C=CC(=[N+](C)C)C=C6)c6ccc(N(C)C)cc6)c5)CC4)CC[C@]23C)C1(C)C (some centres unmarked) |  |  |  |  | 1000 |
| N#Cc1ccc(-c2csc(N3N=C(c4ccc(N5CCOCC5)cc4)CC3c3ccc(Cl)cc3)n2)cc1 (centres unmarked) | cell growth | MTT |  |  | 8050 |
| Oc1cccc(-c2cccc(O)n2)n1.[Cl-].[Cl-].[Ru+2].c1cnc2c(c1)c1c(c3cccnc32)OCCO1.c1cnc2c(c1)c1c(c3cccnc32)OCCO1 | cell viability |  |  | dark | 490000 |
| COc1ccc(-c2ccc(NC(=O)Nc3ccc(Cl)c(C(F)(F)F)c3)c(C)n2)cc1 |  |  | 48 h |  | 220 |
| CC1=CC(C)=[N+]2C1=C(CO)c1c(C)cc(C)n1[B-]2(C)C | cell viability |  |  | white lamp irradiation | 150 ± 20 |
| CC(=NN=C1SCC(=O)N1Cc1cn(C2OCC(O)C(O)C2O)nn1)c1cccnc1 (centres unmarked) | cell proliferation |  |  |  | 150 |
| COc1c(-c2cc(-c3ccc(C)o3)c(C#N)c(N)n2)c(O)c(Br)c2occc12 |  |  |  |  | 1180 |
| CCCCn1cc(C(=O)O)c(=O)c2cc(F)c(Nc3cccc(Cl)c3)c(N)c21 |  |  |  |  | < 50000 |
| NS(=O)(=O)c1ccc(CC/N=C\c2ccnc3ccccc23)cc1 | cell growth |  |  |  | 8420 |
| COc1ccc(NC(=O)Nc2ccc(-c3ccc(OC)c(OC)c3)nc2C)cc1 |  |  | 72 h |  | 800 |
| NS(=O)(=O)c1ccc(/N=C2/NC(=O)/C(=C3/C(=O)Nc4ccc(Cl)cc43)S2)cc1 | cell growth |  |  |  | 3960 ± 210 |
| C/C(=N\NC(=O)c1ccc([N+](=O)[O-])cc1)c1ccc(NC(=O)c2cccnc2)cc1 |  |  |  |  | 2100 |

Repeated from above:
| Compound | effect on | technique | time | notes | IC50 [nM] |
| --- | --- | --- | --- | --- | --- |
| NS(=O)(=O)c1ccc(CC/N=C\c2ccnc3ccccc23)cc1 | cell growth |  |  |  | 8420 |
